Experimental data of several laboratories.
Every numbered part comes from another study and shows a few of its results, in no order. Values joined by “and” are separate records of one study, mostly repeats; a detail may differ. Positions count from the first letter of the parent shown.
Chain of UniProt Q00537 (whole entry, looked up): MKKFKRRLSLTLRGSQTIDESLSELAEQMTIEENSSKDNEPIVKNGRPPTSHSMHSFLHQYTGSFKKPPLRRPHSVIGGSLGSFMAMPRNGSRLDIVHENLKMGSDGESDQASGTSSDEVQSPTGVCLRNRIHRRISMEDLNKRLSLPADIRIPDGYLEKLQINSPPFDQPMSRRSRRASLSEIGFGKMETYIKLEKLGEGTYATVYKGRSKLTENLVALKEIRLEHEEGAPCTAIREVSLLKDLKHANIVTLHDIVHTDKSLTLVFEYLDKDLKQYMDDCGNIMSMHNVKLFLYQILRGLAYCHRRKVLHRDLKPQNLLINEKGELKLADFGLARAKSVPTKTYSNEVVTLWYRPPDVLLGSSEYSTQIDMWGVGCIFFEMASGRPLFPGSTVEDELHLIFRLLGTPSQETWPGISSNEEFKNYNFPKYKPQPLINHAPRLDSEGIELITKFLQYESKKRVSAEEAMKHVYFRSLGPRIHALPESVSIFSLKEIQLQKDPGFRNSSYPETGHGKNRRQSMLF
Chain of UniProt P00519 (whole entry, looked up): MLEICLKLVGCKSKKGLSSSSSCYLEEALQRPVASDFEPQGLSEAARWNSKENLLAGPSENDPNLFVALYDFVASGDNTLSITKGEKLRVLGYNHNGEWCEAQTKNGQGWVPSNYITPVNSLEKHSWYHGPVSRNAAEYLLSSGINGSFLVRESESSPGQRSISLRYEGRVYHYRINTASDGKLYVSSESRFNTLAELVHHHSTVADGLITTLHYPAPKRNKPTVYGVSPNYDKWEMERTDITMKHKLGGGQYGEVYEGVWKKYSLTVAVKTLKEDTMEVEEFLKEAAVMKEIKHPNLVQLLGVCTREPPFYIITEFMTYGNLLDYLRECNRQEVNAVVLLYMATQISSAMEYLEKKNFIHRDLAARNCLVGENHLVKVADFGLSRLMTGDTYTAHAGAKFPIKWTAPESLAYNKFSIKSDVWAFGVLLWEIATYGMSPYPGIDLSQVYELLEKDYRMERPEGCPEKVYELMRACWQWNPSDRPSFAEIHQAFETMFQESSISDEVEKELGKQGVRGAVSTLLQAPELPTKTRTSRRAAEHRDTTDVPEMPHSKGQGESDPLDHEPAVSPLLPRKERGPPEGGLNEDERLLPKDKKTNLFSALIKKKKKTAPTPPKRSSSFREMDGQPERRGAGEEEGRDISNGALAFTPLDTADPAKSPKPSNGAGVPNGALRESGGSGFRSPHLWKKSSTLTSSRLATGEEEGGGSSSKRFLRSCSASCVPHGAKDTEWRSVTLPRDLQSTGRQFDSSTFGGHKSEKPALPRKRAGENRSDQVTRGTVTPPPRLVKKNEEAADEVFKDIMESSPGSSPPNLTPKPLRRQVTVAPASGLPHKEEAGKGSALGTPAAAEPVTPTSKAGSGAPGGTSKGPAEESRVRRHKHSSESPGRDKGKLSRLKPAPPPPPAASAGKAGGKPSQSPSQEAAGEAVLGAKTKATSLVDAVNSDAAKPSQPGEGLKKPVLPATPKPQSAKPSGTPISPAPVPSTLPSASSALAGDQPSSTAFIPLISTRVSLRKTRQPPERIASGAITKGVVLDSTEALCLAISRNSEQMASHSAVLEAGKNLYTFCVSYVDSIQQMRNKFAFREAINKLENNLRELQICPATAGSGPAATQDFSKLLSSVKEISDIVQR
Chain of UniProt Q15349 (whole entry, looked up): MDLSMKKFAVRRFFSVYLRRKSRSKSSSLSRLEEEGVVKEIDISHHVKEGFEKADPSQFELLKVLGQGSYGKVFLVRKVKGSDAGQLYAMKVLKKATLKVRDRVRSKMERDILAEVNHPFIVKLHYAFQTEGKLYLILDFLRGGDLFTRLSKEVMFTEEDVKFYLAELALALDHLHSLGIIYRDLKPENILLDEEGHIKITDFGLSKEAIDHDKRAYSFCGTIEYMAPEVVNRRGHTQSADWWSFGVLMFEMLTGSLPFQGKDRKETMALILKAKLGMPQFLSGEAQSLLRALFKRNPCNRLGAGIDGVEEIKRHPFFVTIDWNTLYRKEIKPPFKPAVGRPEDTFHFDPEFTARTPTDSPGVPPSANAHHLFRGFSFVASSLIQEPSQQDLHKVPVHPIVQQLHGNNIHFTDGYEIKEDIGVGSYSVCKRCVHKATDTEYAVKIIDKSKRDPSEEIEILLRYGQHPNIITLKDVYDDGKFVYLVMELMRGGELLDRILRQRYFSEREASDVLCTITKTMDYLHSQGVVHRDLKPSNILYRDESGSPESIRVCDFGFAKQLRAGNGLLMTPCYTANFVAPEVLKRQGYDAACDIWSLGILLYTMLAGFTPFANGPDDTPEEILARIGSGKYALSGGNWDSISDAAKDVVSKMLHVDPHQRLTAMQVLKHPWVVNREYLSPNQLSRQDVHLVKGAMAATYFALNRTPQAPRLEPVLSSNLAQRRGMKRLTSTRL
Chain of UniProt O94806 (whole entry, looked up): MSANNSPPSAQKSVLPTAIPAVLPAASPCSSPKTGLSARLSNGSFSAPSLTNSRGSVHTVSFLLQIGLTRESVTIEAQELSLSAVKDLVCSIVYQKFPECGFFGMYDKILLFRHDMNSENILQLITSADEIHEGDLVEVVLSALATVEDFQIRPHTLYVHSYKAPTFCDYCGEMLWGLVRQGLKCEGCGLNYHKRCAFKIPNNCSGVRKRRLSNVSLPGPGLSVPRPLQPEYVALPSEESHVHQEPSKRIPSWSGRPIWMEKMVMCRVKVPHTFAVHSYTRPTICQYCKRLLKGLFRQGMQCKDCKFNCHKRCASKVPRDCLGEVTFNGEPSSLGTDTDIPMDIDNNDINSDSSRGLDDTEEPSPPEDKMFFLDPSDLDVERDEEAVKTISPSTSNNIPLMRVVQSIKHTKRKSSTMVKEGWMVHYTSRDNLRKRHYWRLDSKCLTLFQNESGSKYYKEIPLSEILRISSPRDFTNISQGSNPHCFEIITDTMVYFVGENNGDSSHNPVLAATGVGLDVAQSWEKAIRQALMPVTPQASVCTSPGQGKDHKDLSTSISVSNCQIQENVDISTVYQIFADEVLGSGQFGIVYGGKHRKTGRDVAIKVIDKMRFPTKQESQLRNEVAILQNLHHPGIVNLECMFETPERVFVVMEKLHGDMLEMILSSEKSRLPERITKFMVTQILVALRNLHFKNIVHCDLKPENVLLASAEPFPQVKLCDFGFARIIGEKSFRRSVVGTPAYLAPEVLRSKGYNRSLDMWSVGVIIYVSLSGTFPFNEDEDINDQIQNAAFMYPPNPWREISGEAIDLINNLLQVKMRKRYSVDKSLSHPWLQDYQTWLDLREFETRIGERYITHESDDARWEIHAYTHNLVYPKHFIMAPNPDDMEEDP
Chain of UniProt P9WI81 (whole entry, looked up): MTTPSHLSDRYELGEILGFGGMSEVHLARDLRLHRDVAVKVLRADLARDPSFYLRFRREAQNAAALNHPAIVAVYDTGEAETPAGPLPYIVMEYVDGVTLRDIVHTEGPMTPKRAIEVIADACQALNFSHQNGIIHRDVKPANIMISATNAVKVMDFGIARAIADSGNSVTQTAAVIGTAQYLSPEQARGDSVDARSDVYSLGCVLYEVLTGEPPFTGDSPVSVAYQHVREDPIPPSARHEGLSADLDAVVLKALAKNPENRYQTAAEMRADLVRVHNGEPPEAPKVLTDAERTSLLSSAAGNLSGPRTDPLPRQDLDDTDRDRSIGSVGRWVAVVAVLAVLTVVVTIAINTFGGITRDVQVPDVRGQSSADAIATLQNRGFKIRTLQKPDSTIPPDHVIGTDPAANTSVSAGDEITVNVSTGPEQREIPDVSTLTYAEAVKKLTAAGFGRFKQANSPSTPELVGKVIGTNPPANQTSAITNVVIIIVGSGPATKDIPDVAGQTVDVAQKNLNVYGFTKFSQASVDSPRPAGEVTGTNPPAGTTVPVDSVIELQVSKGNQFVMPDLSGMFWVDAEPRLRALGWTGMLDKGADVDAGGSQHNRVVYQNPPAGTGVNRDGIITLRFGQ
Chain of UniProt P29322 (whole entry, looked up): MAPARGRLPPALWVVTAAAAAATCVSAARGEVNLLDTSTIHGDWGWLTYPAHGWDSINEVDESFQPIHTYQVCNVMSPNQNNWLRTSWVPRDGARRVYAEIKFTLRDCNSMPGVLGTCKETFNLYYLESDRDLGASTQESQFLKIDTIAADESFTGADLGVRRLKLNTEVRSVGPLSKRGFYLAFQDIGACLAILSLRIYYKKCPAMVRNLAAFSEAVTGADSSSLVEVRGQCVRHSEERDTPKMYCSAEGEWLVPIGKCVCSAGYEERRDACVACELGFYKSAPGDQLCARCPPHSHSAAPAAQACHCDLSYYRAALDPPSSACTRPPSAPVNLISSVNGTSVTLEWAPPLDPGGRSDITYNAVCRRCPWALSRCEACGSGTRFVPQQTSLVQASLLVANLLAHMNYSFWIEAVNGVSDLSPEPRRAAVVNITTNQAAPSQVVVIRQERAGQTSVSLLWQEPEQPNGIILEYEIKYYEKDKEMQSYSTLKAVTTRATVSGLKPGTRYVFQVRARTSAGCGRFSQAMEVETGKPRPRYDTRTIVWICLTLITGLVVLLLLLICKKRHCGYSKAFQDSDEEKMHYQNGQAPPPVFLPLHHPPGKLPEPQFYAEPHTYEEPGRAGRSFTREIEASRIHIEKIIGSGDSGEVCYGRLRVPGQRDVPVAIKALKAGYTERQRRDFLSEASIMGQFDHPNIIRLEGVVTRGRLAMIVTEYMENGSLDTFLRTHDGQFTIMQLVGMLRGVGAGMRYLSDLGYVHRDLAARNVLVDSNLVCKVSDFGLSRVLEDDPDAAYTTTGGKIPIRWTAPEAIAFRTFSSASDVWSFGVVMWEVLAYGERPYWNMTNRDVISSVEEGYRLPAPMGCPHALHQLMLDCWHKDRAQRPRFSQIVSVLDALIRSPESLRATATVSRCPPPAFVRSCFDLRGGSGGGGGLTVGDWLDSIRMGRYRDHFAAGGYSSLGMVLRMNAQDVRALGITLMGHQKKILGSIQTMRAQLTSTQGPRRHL

Sample 1
Target: HLA class I histocompatibility antigen, A alpha chain, allele A*80:01 (Homo sapiens, UniProt P04439)
Effect on: peptide-MHC binding
Form: peptide
Concentration: concentration not given
Measurement: binding
DFISMYFPW: inactive
YYSNKAYQY: inactive
ESEVDDPAM: inactive
SMHYKLDEV: inactive
ILRNPGYAL: inactive
FTARIIIFS: inactive
RSLVCLAPK: inactive
EWAENCYNL: inactive

Sample 2
Target: CCND1, cyclin fold, Cln2 fusion (human)
Technique: yeast growth competition, sequencing
Matrix: yeast
Notes: strong parent motif
Reference: not given
Direction: higher = stronger binding
Measurement: normalised enrichment score
Starting sequence: viral docking peptide; KGVKRKLFAEDSS
E10I: 0.335
V3D: -0.189
K6C: 0.776
V3Y: 0.0774
L7T: 0.168
S12Q: 0.788
S12N: 1.66
K6N: 0.23

Sample 3
SMILES: Cn1cncc1[C@@](O)(COc1ccc(C#N)cc1-c1ccc(OC(F)(F)F)cc1)c1ccc(C#N)cc1
Effect on: cell-free assay
Technique: competition with immobilised ligand
Concentration: 1 µM
Measurement: remaining binding
TIE1 (Homo sapiens, UniProt P35590): 100%
PIK3CA (Homo sapiens, UniProt P42336, E542K): 81%
MAST1 (Homo sapiens, UniProt Q9Y2H9): 100%
pknB (Mycobacterium tuberculosis, UniProt P9WI81): 78%
KIT (Homo sapiens, UniProt P10721, D816H): 100%
CAMKK1 (Homo sapiens, UniProt Q8N5S9): 100%
Ribosomal protein S6 kinase alpha-2, N-terminal kinase domain (RPS6KA2, Homo sapiens, UniProt Q15349): 100%
Tyrosine-protein kinase ABL1, phosphorylated (ABL1, Homo sapiens, UniProt P00519): 96%
LIM domain kinase 2 (LIMK2, Homo sapiens, UniProt P53671): 82%
FYN (Homo sapiens, UniProt P06241): 97%
NEK1 (Homo sapiens, UniProt Q96PY6): 100%
PRKAA2 (Homo sapiens, UniProt P54646): 87%
FLT1 (Homo sapiens, UniProt P17948): 83%
EPHA8 (Homo sapiens, UniProt P29322): 100%
PRKD3 (Homo sapiens, UniProt O94806): 98%
CDK17 (Homo sapiens, UniProt Q00537): 95%
SIK2 (Homo sapiens, UniProt Q9H0K1): 100%

Other studies, line by line
CNC(=O)c1ccc(-c2cnn3ccc(C(=O)N(C)c4ccc(Cl)c(C(=O)OC)c4)cc23)cc1 — fecal oocyst count (Cryptosporidium parvum; qPCR; neonatal calves; dose not given, day 0 post-treatment): 10600 oocysts/g feces and 126000 oocysts/g feces and 89800 oocysts/g feces and 30700 oocysts/g feces and 77100 oocysts/g feces and 27600 oocysts/g feces and 3520 oocysts/g feces
Cc1c(C(=O)NC(C(=O)O)C(C)C)c2cc(F)ccc2n1CC(C)(C)O (stereo not drawn) — remaining compound (human, microsomes or S9; 2 µM, 0.5 h): > 99%
C[C@@H](NCCCc1cccc(C(F)(F)F)c1)c1cccc2ccccc12 — GFP-positive cells (HEK-293T/ACE2; pseudovirus infection, counter-screen; VSV pseudotyped with VSV-G; 10 µM, 16 h; reference: vehicle-treated): 131%
CC(N)Cc1ccccc1[S+]([O-])c1ccccc1 (stereo not drawn) — remaining compound (human, microsomes or S9; 2 µM, 0.5 h): 79.3%
CN(C)C(=O)Oc1cccc([N+](C)(C)C)c1 — GFP-positive cells (HEK-293T/ACE2; pseudovirus infection, counter-screen; VSV pseudotyped with VSV-G; 10 µM, 16 h; reference: vehicle-treated): 106%
c1ccc(Oc2ccc(Nc3c4c(nc5ccccc35)CCC4)cc2)cc1 — inhibition (Leishmania donovani; parasite growth; 4 µM, intracellular, amastigote): 37%

Excerpt of the above (sample 3):
KIT (Homo sapiens, UniProt P10721, D816H): 100%
CAMKK1 (Homo sapiens, UniProt Q8N5S9): 100%
Ribosomal protein S6 kinase alpha-2, N-terminal kinase domain (RPS6KA2, Homo sapiens, UniProt Q15349): 100%
Tyrosine-protein kinase ABL1, phosphorylated (ABL1, Homo sapiens, UniProt P00519): 96%
LIM domain kinase 2 (LIMK2, Homo sapiens, UniProt P53671): 82%
FYN (Homo sapiens, UniProt P06241): 97%
